Results collected from several papers.
Each numbered part is a random draw from the data of one study; scales do not carry over between parts. Substitutions count along the parent as printed.

Set 1
Target: ABI1, truncated, D143A, DHFR fusion (Arabidopsis thaliana)
Technique: DHFR PCA, deep sequencing
Medium: yeast
Setting: methotrexate growth selection, single substitutions
Together with: (+)-ABA 0 µM
Relative to: wild-type fitted maximum
Reading: higher = stronger binding
Starting sequence: PYL1, truncated, DHFR fusion (Arabidopsis thaliana); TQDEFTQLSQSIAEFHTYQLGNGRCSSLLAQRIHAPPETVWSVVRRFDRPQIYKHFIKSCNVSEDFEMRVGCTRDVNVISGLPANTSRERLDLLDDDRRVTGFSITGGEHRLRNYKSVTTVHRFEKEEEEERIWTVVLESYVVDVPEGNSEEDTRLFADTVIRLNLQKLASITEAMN; partner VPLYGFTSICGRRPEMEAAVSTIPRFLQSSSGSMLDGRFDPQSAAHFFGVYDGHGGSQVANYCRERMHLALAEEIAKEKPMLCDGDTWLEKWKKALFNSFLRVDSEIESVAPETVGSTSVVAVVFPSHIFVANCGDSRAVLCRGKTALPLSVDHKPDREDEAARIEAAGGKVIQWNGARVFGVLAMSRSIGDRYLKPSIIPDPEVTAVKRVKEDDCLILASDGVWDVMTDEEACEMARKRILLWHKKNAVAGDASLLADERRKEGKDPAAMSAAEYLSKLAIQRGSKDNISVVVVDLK
| Change | relative binding score [%] |
| --- | --- |
| R69P | -4.19 |
| A13V | 8.19 |
| V137E | 2.33 |
| L8R | -5.21 |
| V62P | -13.2 |
| S26T | 27 |
| L164T | 11.9 |
| V136H | -6.74 |
| S87W | 30.1 |
| E14T | 5.01 |
| L94I | 2.95 |
| V40N | -5.66 |
| L82N | 8.18 |
| E64A | 31.2 |
| N61M | 23.6 |
| H16K | -1.85 |
| T17C | 2.71 |
| V100S | -2.26 |

Set 2
Target: RING finger protein unkempt homolog, zinc fingers 1-6, GST-SBP tag (UNK, Homo sapiens, UniProt Q9C0B0, residues 30-357)
Sequence of UniProt Q9C0B0 (30-357, looked up): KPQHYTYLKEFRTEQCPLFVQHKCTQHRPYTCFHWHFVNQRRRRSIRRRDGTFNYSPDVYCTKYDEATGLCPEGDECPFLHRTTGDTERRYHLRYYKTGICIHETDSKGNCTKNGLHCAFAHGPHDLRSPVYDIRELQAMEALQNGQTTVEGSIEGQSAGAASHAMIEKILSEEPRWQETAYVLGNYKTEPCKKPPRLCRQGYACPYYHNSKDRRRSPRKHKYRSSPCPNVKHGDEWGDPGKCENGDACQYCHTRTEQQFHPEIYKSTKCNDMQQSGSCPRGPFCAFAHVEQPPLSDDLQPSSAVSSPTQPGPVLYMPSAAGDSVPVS
Technique: RNA Bind-n-Seq
Form: RNA
Medium: in vitro
Tested at: not given
Setting: RNA with constant flanks, human and mouse sites, ends assumed
Relative to: input RNA pool
Reading: higher = stronger binding
Constant ends, left off below: GGGAGUUCUACAGUCCGACGAUC … CAACAGAGGAUUGAGCAUCA
| Oligonucleotide | bound/input enrichment |
| --- | --- |
| GCGCACAGACUUCUCAGUUUGUGUACUCUGUCUGCACCUACACGAUUAGAACCUGAAACAGCACCUACCAAGAGCUUGGUUAGUCACAUACCAAAGCAGAUGUCUACACCGUGCCAUCCC | 0.152 ratio |
| CUGACCCAUAAUAACGGAAAGUUUAACAAUGACUCACAUUCUCCUAAAGUUUCCAGCCAGAAUAGGACACGCUCAUUUGGUCAUUUUCCCGGUCCAGAGUUCUUGGAUGUAGAGAAAACU | 0.29 ratio |
| GGUAGUCUGGCUGUAUUUGGAAAGUUGCAAAGAAGGUAGAUUUGGGGGCAGGAAAAACAACCCUUUUCACAGUGUACUGUGUUUGGUUGGUGUAAAACUGAUGCAGAUUUUUCUGAAAUG | 0.705 ratio |
| CAAAAGAAGAACAAGAUCCAUACUUUGGAGGACUUCCAGCGGGUUAUCAAUGUGAAUCUUAUAGGCACUUUCAAUGUGAUCCGCCUGGUUGCUGGGGAGAUGGGCCAGAAUGAACCAGAC | 0.313 ratio |
| UCAUAUAUACCAGGUUUCCUCUUUGCAGUAAAUGGGAAGCCUUACUUUGGAGACCAAGAACCCGUGCAAGGAUUUGUGAUGAACUUUUCCAGUGGGGAAAUUAUAGAUGUUUUCAAACCA | 0.24 ratio |
| UUGGAAAAUGGAUAUACCUUAUUUGAUUAUGAUGUUGGACUGAAUGAUAUAAUUCAGCUGCUAGUUCGCCCAGACCCUGAUCAUCUUCCUGGCACAUCUACACAGAUUGAGGCUAAACCC | 0.234 ratio |
| GCAUGGACACUACUGCUGACCAUAUGCCCAAUCAAUGAAGUGAAGAAAAAGCUUGAGAUGCAUUUCCAUAAGCUUCCAAGCCUCCUCUCUUGUGAUGAUGUAAACAUGAGAAUAGCUGCU | 0.356 ratio |
| CCAUUUGAUCCUAGAGUUCUCUUCUCUGCUGGUCAUGAUGGAAAUGUGAUAGUGUGGGAUCUAGCAAGAGGAGUCAAAGUUCGAUCUUAUUUCAAUAUGAUUGAAGGACAAGGACAUGGU | 0.295 ratio |

Set 3
Target: Fragile X messenger ribonucleoprotein 1, C-terminal low-complexity region (Fmr1, Mus musculus, UniProt P35922)
Technique: RNA Bind-n-Seq
Form: RNA
Medium: in vitro
Tested at: 200 nM
Setting: whole 134-nt RNA, ends assumed
Together with: 150 mM LiCl
Relative to: input library
Reading: higher = stronger binding
Each molecule: 7-deaza-guanosine replaces G
Constant ends, left off below: GGGAGUUCUACAGUCCGACGAUC … UGGAAUUCUCGGGUGUCAAGG
| Oligonucleotide | log2 enrichment |
| --- | --- |
| AGUCCUGUGCUACACAUCGUAUGUACCGAAUCGGUUUUUUUGGAAAAAAAGGAAAGGAAAGUAUUAUGUUACGCCGUUCGGAUCUGCACU | -3.45 |
| UGUGCGGGAGACAGGCGCCAACGGCACCUCUUUCAGUGUCCGCAAGACAGCCUACUGCGACAUCCACACGCCUCCAGGUUCAGCACGCCG | 0.331 |
| UGUGAGCGGAGCCUGGAGGAGCUGCUGCACUACGUGGGCCAGCUGCGGGCUGAGCUGGCCAGCGCAGGUGGGUGGCCACCCUUGCAAGUG | -1.13 |
| UGCUUGUUCUGGAGUGAUCUUCUGACUGGAAAAGAACUAUGUCAUGGAUCAAGGAAGGAGAGCUGUCACUUUGGGAGCGGUUCUGUGCCA | 1.08 |
| AAGUCCUGUGCUACACAUCGUAUGUACCGAAUCGGGGUGGGGUUUGGGGAAAGGGGAAAGUAUUAUGUUACGCCGUUCGGAUCUGCACUU | -1.13 |
| CCUCAAGUCCUGUGCUACACAUCGUAUGUACCGAAUCGGGGAGGGAGGGGAGGAAAGUAUUAUGUUACGCCGUUCGGAUCUGCACUUCCA | -1.18 |
| AAGUCCUGUGCUACACAUCGUAUGUACCGAAUCGGAAAAAAAGGAAAAAAAGGUGGAAAGUAUUAUGUUACGCCGUUCGGAUCUGCACUU | -2.2 |
| CUCAAGUCCUGUGCUACACAUCGUAUGUACCGAAUCGGAAGGGAAGGGAAGGGAAAGUAUUAUGUUACGCCGUUCGGAUCUGCACUUCCA | -0.025 |

Set 4
Target: CCNB2, cyclin fold, Cln2 fusion (human)
Technique: yeast growth competition, sequencing
Medium: yeast
Setting: weak parent motif
Relative to: not given
Reading: higher = stronger binding
Starting sequence: DTL docking peptide (human); PSSMRKICTYFHR; partner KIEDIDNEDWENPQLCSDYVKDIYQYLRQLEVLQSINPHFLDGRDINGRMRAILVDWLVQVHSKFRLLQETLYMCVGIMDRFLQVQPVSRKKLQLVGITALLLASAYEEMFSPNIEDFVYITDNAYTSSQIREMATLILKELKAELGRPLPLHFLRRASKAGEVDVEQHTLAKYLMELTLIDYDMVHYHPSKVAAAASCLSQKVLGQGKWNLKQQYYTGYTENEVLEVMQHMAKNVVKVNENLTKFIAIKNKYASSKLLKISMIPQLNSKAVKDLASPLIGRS
| Change | normalised enrichment score |
| --- | --- |
| Y10A | 0.392 |
| K6A | 0.326 |
| R5A | 0.391 |
| S3A | 0.326 |
| H12A | 0.481 |
| C8A | 0.512 |

For quick reference, copied from above (set 1):
| Change | relative binding score [%] |
| --- | --- |
| L94I | 2.95 |
| L8R | -5.21 |
| V137E | 2.33 |
| V100S | -2.26 |
